Published values from different studies.
Parts stem from different laboratories: compare values within a part only. Substitutions count along the parent as printed.

Set 1
Substance: PhoQ, residues 284 288 289 292 302 303 SSCCRF
Method: Sort-seq
Item: YFP reporter
Matrix: E. coli
Setting: PhoQ-PhoP variant library
With: 10 µM Mg2+
Baseline: high Mg2+ state
Direction: higher = stronger signaling
target	fold induction
PhoP, residues 12 14 15 18 19 TQALL (Escherichia coli, UniProt P23836)	13.6
PhoP, residues 12 14 15 18 19 QYFSL (Escherichia coli, UniProt P23836)	5.73
PhoP, residues 12 14 15 18 19 NYFRM (Escherichia coli, UniProt P23836)	16.1

Set 2
Target: CCNB3, cyclin fold, Cln2 fusion (human)
Method: yeast growth competition, sequencing
Matrix: yeast
Setting: weak parent motif
Baseline: not given
Direction: higher = stronger binding
Starting sequence: MICAL3 docking peptide (human); LQLRRQLSFSEDS; partner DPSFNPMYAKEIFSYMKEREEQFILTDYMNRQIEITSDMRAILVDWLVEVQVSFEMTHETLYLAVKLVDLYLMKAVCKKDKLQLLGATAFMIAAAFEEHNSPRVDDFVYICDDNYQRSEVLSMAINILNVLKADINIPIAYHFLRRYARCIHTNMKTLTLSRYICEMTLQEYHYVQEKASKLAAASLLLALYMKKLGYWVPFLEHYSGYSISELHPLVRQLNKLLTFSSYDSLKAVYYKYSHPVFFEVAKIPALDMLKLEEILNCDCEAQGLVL
Change	normalised enrichment score
F9S	-0.225
S8A	-0.121
D12A	0.0858
E11T	0.305
Q6F	-0.137
R4H	-0.158
L7Q	-0.0588
Q2P	0.382
Q2H	0.264
D12T	0.373

Set 3
Target: RNA binding protein fox-1 homolog 2, RRM domain, GST-SBP tag (RBFOX2, Homo sapiens, UniProt O43251-10, residues 100-194)
Method: RNA Bind-n-Seq
Form: RNA
Matrix: in vitro
Concentration: 365 nM
Setting: natural RNA segment, single round, ends assumed
Baseline: no-protein control
Direction: higher = stronger binding
Shared flanks, not repeated: GGGAGUUCUACAGUCCGACGAUC … UGGAAUUCUCGGGUGCCAA
Construct (chain): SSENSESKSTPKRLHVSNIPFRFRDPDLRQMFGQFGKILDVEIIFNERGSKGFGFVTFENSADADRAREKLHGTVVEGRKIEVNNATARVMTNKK
Oligonucleotide	RBNS enrichment (R)
GCAUGCAGAAACUUGGAUGUCACUGCCUGACAUUCACUUCCAGAGAGGACCUAUCCCAAAUGUGGAAUUGACUGCCUAUGCCAAGUCCCUGGAAAAGGAGCUUCAGUAUU	9.27
CAUAACCUGAAGUUAAGUCACAUCCCCUGUCGGGACCUCCGUGCACUCAUCUGUCAAGUGGGGGCGCUUCCCUUCCAGCAUCACCUGCAGCAGACGGGCUCUCGGGAGUC	0.468
UCCCUCUUCGGGGGCAGACCCCACACUCCGGGCAGGUGCUCAAACCUGACGGUAAACUCUUCCCUCUUCGGGGGCAGACCCCAUACCCCGGGGCGGGUGCUUAGGCUUUC	0.278
GUAAAAAGCAUGUAUUUAUAGUGUUUUAGAUUUUUCUAACUUUUGUAUCUUACAGCAUUGUACCCCAUUGUUAAAGAGCCGUGUCCCCUCUUCUUAUAAACGCCCUUCUA	0.862
CACACGCCCCCAGGUCUCCAGGGUAGAAAUCUUUCCAACAGUAGGAACCUAGAGUUAGUCAGGAGUAAAGUCUGUCUAAGGGGAUCGGCAAGCUGCCAGACAACUCUGGC	0.425
UAUCAGCAGCAACAACUGUCAGUUCAUCCUGCAUGGGAAAAAUGUUGGAAUGGGAGUCUGAAAUGGGGCUACUGUUUCAGUCCUAAUGUGCUGUGUGACAUUGGGACAAC	0.797
UUGCAUCCCCAGGGGCUGCCGCAGAGGCCGGAGACCUCCUGGACUAGUUCGGCGAGGAGACUGGCCACUGGGGGUGGCUGUUCGGGACUGAGAGCGCCAAGGGUCUUUGC	0.821
ACAAAACCAUAUCAGUGUACUGUAGCCCCUUAAUUUAAGCUUUCUAGAAAGCUUUGGAAGUUUUUGUAGAUAGUAGAAAGGGGGGCAUCACCUGAGAAAGAGCUGAUUUU	0.69
GAAAGCAGGUUCUGUGGGACCCCCCGCCCCGCCCCCCGCACUCCUUCAUAGCAGCAGUAGUGGCUUCUCCAUCCUGUUUUCUGCAACAUUCUAUACAAAACUGUGCUGUG	0.498
CUUCUUUUCUCCUUCAGGAACUGUGAAUGGCUAGAAGAAGGAGCUCAGUAAACUAGAAGUCCAGGGUUGCUUGGUUUACUGGUUUAUAAGAAAUCUGAAAGCACCUCUGA	0.446
GCCAGUUGCUGUUGCACAGGAGGCGAGAACAGCACACUUCAACCCCAGCUUGCUGGUCGGCUUUCCUCUAGAGAGAGCCGGUUUUGGGGCCAUUUCCCUUUGAUGCUUUG	3.88
GCCUGUUUUCUGUUUCAAACAUGAUAGUUGAUAUGAGACUGAAACCCCUGGGUUGUGGAGGGAAAUUGGCUCAGAGAUGGACAACCUGGCAACUGUGAGUCCCUGCUUCC	0.481

Set 4
Target: Fragile X messenger ribonucleoprotein 1, C-terminal low-complexity region (Fmr1, Mus musculus, UniProt P35922)
Method: RNA Bind-n-Seq
Form: RNA
Matrix: in vitro
Concentration: 200 nM
Setting: whole 134-nt RNA, ends assumed
With: 150 mM KCl
Baseline: input library
Direction: higher = stronger binding
Shared flanks, not repeated: GGGAGUUCUACAGUCCGACGAUC … UGGAAUUCUCGGGUGUCAAGG
Oligonucleotide	log2 enrichment
GAAGGAAGUAAAAACAAAUGGAAAUGCUUCGGAUAGUGGCAGGGGUGGGGGUUGCUAAGGAAAGGGUGGGAUGGGAGUGGGUAAAGAGUU	0.159
UCAAGUCCUGUGCUACACAUCGUAUGUACCGAAUCGGUGGUUUUUUUGGAAAGGAAAGUAUUAUGUUACGCCGUUCGGAUCUGCACUUCC	-0.567
UGGCCCUGGUGGCAUGCGGGGAGGAAGAGGUGGCCUCAUGGAUCGUGGUGGUCCCGGUGGACUGUUCAGAGGUGGCCGUGGUGGAGACAG	0.103
UGGCCCUGGUGGCAUGCGGGGAGGAAGAGGUGGCCUCAUGGAUCGUGGUGGUCCCGGUGGAAUGUUCAGAGGUGGACGUGGUGGAGACAG	0.179
UAACUUUAGAGGAGGAUCUGAUGGAUAUGGCAGUGGACGUGGAUUUGGGGAUGGCUAUAAUGGGUAUGGAGGAGGACCUGGAGGCGGCAA	0.153
UCCACCCCUUCUUCCUCCCUUUAACUUAUCCAUUCACUUAAAACAUUACCUGGUCAUCUGGUAAGCCCGGGACAGUAAGCCGAGUGGCUG	0.177
UGUUGAUGCUGUAAUUGCUGAACUUAAAAAGCAGUCUAAACCUGUGACCACCCCUGAAGAAAUUGCACAGGUAAGGACUUAACAUGUUAC	0.474
CCCGAGCCGGAGAGGGAGCGCGAGCCGCGCCGGCCCCGGUCGGGCCUCCGAAACCAUGAACUUUCUGCUGUCUUGGGUGCAUUGGAGCCU	-0.26
ACCUUCACGGCAUGGUGCAACUCCCACCUGCGGAAGGCAGGCACACAGAUCGAGAACAUUGAUGAGGACUUCCGAGACGGGCUCAAGCUC	0.946
AGUCCUGUGCUACACAUCGUAUGUACCGAAUCGGAAAAGGGGAAAAGGGGAAAAGGGGAAAGUAUUAUGUUACGCCGUUCGGAUCUGCAC	0.262
CCUCAAGUCCUGUGCUACACAUCGUAUGUACCGAAUCGGAGGGAGGGGAGGGGAAAGUAUUAUGUUACGCCGUUCGGAUCUGCACUUCCA	0.583

Repeated from above (set 2):
Change	normalised enrichment score
F9S	-0.225
S8A	-0.121
D12A	0.0858
E11T	0.305
